Measurements pooled from the literature.
Each line is one published result; not all experiments were run side by side. ± gives the spread as reported.
Target: Estrogen receptor beta (ESR2, Homo sapiens, UniProt Q92731)
Chain of UniProt Q92731 (whole entry, looked up): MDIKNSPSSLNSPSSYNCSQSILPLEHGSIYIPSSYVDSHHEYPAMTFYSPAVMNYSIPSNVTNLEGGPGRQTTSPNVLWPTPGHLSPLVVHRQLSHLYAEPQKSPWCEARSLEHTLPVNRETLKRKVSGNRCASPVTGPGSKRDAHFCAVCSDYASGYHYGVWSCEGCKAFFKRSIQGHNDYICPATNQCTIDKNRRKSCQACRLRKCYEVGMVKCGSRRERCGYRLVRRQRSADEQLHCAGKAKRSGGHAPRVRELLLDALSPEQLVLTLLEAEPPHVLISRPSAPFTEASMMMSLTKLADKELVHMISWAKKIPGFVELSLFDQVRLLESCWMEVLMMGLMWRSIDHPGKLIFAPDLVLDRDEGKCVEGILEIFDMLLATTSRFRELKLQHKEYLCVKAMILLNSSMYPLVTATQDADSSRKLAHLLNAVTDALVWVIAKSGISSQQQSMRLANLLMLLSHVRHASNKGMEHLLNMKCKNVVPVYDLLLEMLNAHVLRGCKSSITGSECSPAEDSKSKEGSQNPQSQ

| test | setting | scale | endpoint | value | Compound |
| --- | --- | --- | --- | --- | --- |
| competitive radioligand binding | concentration not given | baseline: estradiol, higher = stronger binding | relative binding affinity | 0.015 ± 0.001 | Oc1ccc(-c2cc(-c3ccc(OCCN4CCCCC4)cc3)n(-c3ccc(O)cc3)n2)cc1 |
| radioligand competition binding | concentration not given, Z-E/E isomer form, added: [3H]estradiol tracer | baseline: estradiol | relative binding affinity | 9.48% | CC/C(=C(\c1ccc(O)cc1)c1ccc(OCCN(C)CCOCCOCCOCCOCCOCCOCCOCCN(C)CCOc2ccc(/C(=C(\CC)c3ccccc3)c3ccc(O)cc3)cc2)cc1)c1ccccc1 |
| competitive radioligand binding | concentration not given | baseline: estradiol, higher = stronger binding | relative binding affinity | 0.011 ± 0.001 | Oc1ccc(-c2cc(-c3ccc(OCCCN4CCCCC4)cc3)n(-c3ccc(O)cc3)n2)cc1 |
| competitor, radioligand binding | concentration not given | baseline: estradiol | relative binding affinity | 0.021 ± 0.007 | Oc1ccc(-c2cc(-c3ccc(OCCN4CCCCC4)cc3)n(-c3ccc(O)cc3)n2)cc1 |
| coactivator recruitment, agonist, yeast two-hybrid | added: SRC1 | baseline: ERα EC50 over ERβ EC50 | selectivity ratio | 2.27 | N#CC(=CC(=O)c1ccccc1)c1ccc(O)cc1 |
| competitor, radioligand binding | concentration not given | baseline: estradiol | relative binding affinity | 0.49 ± 0.27 | CCc1c(-c2ccc(O)cc2)nn(-c2ccc(O)cc2)c1-c1ccc(OCCN2CCCCC2)cc1 |
| binding, radioligand displacement | added: [3H]estradiol | baseline: ERβ over ERα RBA, higher = ERβ selective | selectivity ratio | 0.86 | O=C(O)COc1ccc(C(=C2C3CCCC2CCC3)c2ccc(O)cc2)cc1 |
| coactivator recruitment, agonist, yeast two-hybrid | added: SRC1 | baseline: ERα EC50 over ERβ EC50 | selectivity ratio | 0.5 | N#CC(=Cc1ccc(O)cc1)c1ccc(Cl)cc1Cl |

For quick reference, copied from above:
| test | setting | scale | endpoint | value | Compound |
| --- | --- | --- | --- | --- | --- |
| coactivator recruitment, agonist, yeast two-hybrid | added: SRC1 | baseline: ERα EC50 over ERβ EC50 | selectivity ratio | 0.5 | N#CC(=Cc1ccc(O)cc1)c1ccc(Cl)cc1Cl |
